Experimental data of several laboratories.
Protocols differ between the studies behind these lines. ± marks the error that the study gave.
Chain of UniProt P02769 (whole entry, looked up): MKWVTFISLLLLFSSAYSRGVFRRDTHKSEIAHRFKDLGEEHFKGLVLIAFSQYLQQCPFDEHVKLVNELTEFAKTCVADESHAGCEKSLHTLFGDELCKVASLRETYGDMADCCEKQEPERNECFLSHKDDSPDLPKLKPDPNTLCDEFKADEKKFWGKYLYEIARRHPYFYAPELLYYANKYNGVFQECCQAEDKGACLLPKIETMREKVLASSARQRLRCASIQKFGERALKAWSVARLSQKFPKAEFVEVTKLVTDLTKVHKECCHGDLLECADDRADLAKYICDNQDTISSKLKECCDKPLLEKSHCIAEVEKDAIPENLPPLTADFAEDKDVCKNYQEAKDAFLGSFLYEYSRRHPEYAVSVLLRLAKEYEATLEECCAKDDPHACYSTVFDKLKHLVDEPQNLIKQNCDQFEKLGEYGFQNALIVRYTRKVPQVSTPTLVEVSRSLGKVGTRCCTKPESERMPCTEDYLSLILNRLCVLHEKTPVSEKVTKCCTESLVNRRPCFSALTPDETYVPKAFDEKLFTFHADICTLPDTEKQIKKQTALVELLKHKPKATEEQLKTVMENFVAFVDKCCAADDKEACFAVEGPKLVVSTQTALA

Cc1ccc(CN2CCC(Nc3nc(Oc4c(C)cc(C#N)cc4C)c4ccccc4n3)CC2)cc1  selectivity index (HIV-1; TZM-bl, NL4-3 wild type; reference: CC50 over EC50): > 22.7
C=CCC1=CC2(CC(O)C(C)(C)O2)C2=C(CC3CC4C(=C)CCCC(C)(C)C4CC3(C)O2)C1=O (centres unmarked)  selectivity index (coxsackievirus B3; cytopathic effect; Vero, Nancy; reference: CC50 over IC50): 5.2
N#Cc1ccc(-c2ccc(-c3cccs3)s2)cc1  viability (Salmonella typhimurium; liquid broth OD; TA1535; 50 µM, 15 h; reference: growth): 119 ± 6.7%
[99Tc+].[C-]#[N+]CC(C)(C)OC.[C-]#[N+]CC(C)(C)OC.[C-]#[N+]CC(C)(C)OC.[C-]#[N+]CC(C)(C)OC.[C-]#[N+]CC(C)(C)OC.[C-]#[N+]CC(C)(C)OC  basolateral efflux (human sandwich-cultured hepatocytes; 20 min, culture day 7; reference: preloaded amount): 64 ± 4.2%
Cc1cc(C#N)cc(C)c1Oc1nc(NC2CCN(Cc3ccc(S(N)(=O)=O)cc3)CC2)nc2ncccc12  selectivity index (HIV-1; TZM-bl, NL4-3 wild type; reference: CC50 over EC50): 25800
O=C(O)CCC(NP(=O)(O)OCCC[C@@H](NC(=O)CC[C@H](NC(=O)CCCCCNC(=O)c1ccc([18F])cc1)C(=O)O)C(=O)O)C(=O)O (some centres unmarked)  tracer uptake (CWR22Rv1 tumour model; host not given, heart; 1 h, tumour-bearing): 0.311 %ID/g
N#Cc1ccc(-c2ccc(-c3ccco3)o2)cc1  viability (Salmonella typhimurium; liquid broth OD; TA1535; 25 µM, 15 h; reference: growth): 106 ± 6.6%
[64Cu+2].c1cnc(CNCc2ccc(CN3CCCN4CCNCCCN(CC4)CC3)cc2)nc1  tissue uptake (CXCR4 (human); NOD/SCID mice, U87 xenografts, U87 control tumour; 60 min post-injection): 5.67 ± 0.3 %ID/g
Cn1c(=O)oc2ccc(-c3ccc(CC(C#N)NC(=O)C4CNCCCO4)c(F)c3)cc21 (centres unmarked)  Tmax (human, plasma; 10 to 40 mg once daily for 28 days): 1.5 h
N=C(N)c1ccc(-c2ccc(-c3cccs3)o2)cc1  viability (Salmonella typhimurium; liquid broth OD; TA1535; 25 µM, 15 h; reference: growth): 108 ± 7.4%
Cc1cc(C#N)cc(C)c1Oc1nc(NC2CCN(Cc3ccc([N+](=O)[O-])cc3)CC2)nc2ccccc12  selectivity index (HIV-1; TZM-bl, NL4-3 wild type; reference: CC50 over EC50): > 16.6
N#Cc1ccc(-c2ccc(-c3cccs3)o2)cc1  viability (Salmonella typhimurium; liquid broth OD; TA1535; 25 µM, 15 h; reference: growth): 100 ± 8.6%
Cc1cc(C#N)cc(C)c1Oc1nc(NC2CCN(Cc3ccc(S(N)(=O)=O)cc3)CC2)nc2cccnc12  selectivity index (HIV-1; TZM-bl, NL4-3 wild type; reference: CC50 over EC50): 10000
N#Cc1cc(C(=O)OCC[18F])c(C(F)(F)F)nc1N1CCC(C(=O)NS(=O)(=O)c2ccc(Cl)s2)CC1  permeability (bEnd.3 monolayer transwell; concentration not given, added: verapamil 1.0 µg): 17.2%
N#Cc1ccc(-c2ccc(-c3ccco3)o2)nc1  viability (Salmonella typhimurium; liquid broth OD; TA1535; 50 µM, 15 h; reference: growth): 111 ± 10.1%
O=C(O[C@@H]1Cc2c(O)cc(O)cc2O[C@@H]1c1cc(O)c(O)c(O)c1)c1cc(O)c(O)c(O)c1  remaining fluorescence (Albumin (ALB, Bos taurus, UniProt P02769); binding, fluorescence quenching; 25 µM, 1 h, pH 7.4, added: BSA 3 µM; reference: untreated): 20.7%
Cc1cc(C#N)cc(C)c1Oc1nc(NC2CCN(Cc3ccc(S(=O)(=O)NC4CC4)cc3)CC2)nc2ccccc12  selectivity index (HIV-1; TZM-bl, NL4-3 wild type; reference: CC50 over EC50): > 16.2
C=CCC1=C[C@@]2(C[C@H](O)C(C)(C)O2)C2=C(C[C@H]3C[C@@H]4[C@@H](C[C@@]3(C)O2)C(=C)CCCC4(C)C)C1=O  selectivity index (coxsackievirus B3; cytopathic effect; Vero, Nancy; reference: CC50 over IC50): 4.3
[64Cu+2].c1ccc(CNCc2ccc(CN3CCCN4CCNCCCN(CC4)CC3)cc2)nc1  tissue uptake (CXCR4 (human); NOD/SCID mice, U87 xenografts, small intestine; 90 min post-injection): 4.63 ± 1.16 %ID/g
Cc1cc(C#N)cc(C)c1Oc1nc(NC2CCN(Cc3ccccc3Br)CC2)nc2ccccc12  selectivity index (HIV-1; TZM-bl, NL4-3 wild type; reference: CC50 over EC50): > 6.81
CC(=O)N[C@H](C(=O)N[C@H](C(=O)N[C@@H](CCCNC(=N)N)C(=O)N1Cc2ccccc2C[C@H]1C(=O)N[C@@H](Cc1ccccc1)C(N)=O)C1CCCCC1)C(C)C  cytokine level (human PBMC; Bio-Plex multiplex, item: IL-1ra; 250 µg/mL, 24 h): 201 ± 110 pg/mL
COc1cc(NC(C)=O)c2c(c1O)-c1c(OC)c(OC)cc3c1C(C2)N(C)CC3 (centres unmarked)  remaining compound (rat liver homogenate; 50 µg/mL, 40 d, -20 °C, long-term storage): 87.5 ± 0.2%
N=C(N)c1ccc(-c2ccc(-c3cccs3)o2)nc1  viability (Salmonella typhimurium; liquid broth OD; TA1535; 12.5 µM, 15 h; reference: growth): 112 ± 5%
Cc1cc(/C=C/C#N)cc(C)c1Oc1nc(NC2CCN(Cc3ccc(S(C)(=O)=O)cc3)CC2)nc2ccccc12  selectivity index (HIV-1; TZM-bl, NL4-3 wild type; reference: CC50 over EC50): 1470
N#Cc1ccc(-c2ccc(-c3cccs3)o2)nc1  viability (Salmonella typhimurium; liquid broth OD; TA1535; 12.5 µM, 15 h; reference: growth): 135 ± 12.4%
CC(C)CCC[C@@H](C)[C@H]1CCC([C@@H]2CC[C@H]3C[C@@H](O)CC[C@]3(C)[C@H]2O)[C@]1(C)CC(=O)O (some centres unmarked)  viability (HEK293T; CellTiter-Blue; 10 µM): > 100%

For quick reference, copied from above:
N=C(N)c1ccc(-c2ccc(-c3cccs3)o2)nc1  viability (Salmonella typhimurium; liquid broth OD; TA1535; 12.5 µM, 15 h; reference: growth): 112 ± 5%
Cc1cc(/C=C/C#N)cc(C)c1Oc1nc(NC2CCN(Cc3ccc(S(C)(=O)=O)cc3)CC2)nc2ccccc12  selectivity index (HIV-1; TZM-bl, NL4-3 wild type; reference: CC50 over EC50): 1470
N#Cc1ccc(-c2ccc(-c3cccs3)o2)nc1  viability (Salmonella typhimurium; liquid broth OD; TA1535; 12.5 µM, 15 h; reference: growth): 135 ± 12.4%
CC(C)CCC[C@@H](C)[C@H]1CCC([C@@H]2CC[C@H]3C[C@@H](O)CC[C@]3(C)[C@H]2O)[C@]1(C)CC(=O)O (some centres unmarked)  viability (HEK293T; CellTiter-Blue; 10 µM): > 100%
